Measured values of several laboratories.
Numbers after ± are the reported error.

Compound | test | system | setting | scale | AUC(0-last)
N#CCNC(=O)c1ccc(-c2ccnc(Nc3ccc(N4CCOCC4)cc3)n2)cc1 |  | healthy human volunteers, plasma | oral, dose not given, day 4, without rifampin |  | 4850 ng·h/mL
Cc1cc(C)c(CNC(=O)c2cc(Cl)c3c(c2C)O[C@@](C)([C@H]2CC[C@H](N(C)C)CC2)O3)c(=O)[nH]1 |  | human, plasma | oral, 200 mg [14C] single dose |  | 13600 ng·h/mL
CN(C)C(=O)c1cc2cnc(Nc3ccc(N4CCNCC4)cn3)nc2n1C1CCCC1 |  | human, severe renal impairment, plasma | oral, 400 mg, single dose, adjusted geometric mean |  | 10800 ng·h/mL
Cc1noc(C)c1-c1cc(C(O)(c2ccccn2)c2ccccn2)c2nc(C3CC3)[nH]c2c1 |  | human male fasted, plasma | oral, 2 mg once daily, cycle 1 day 8 |  | 4210 ng·h/mL
CCOc1c([C@H](C)n2nc(C)c3c(N)ncnc32)cc(Cl)c(F)c1[C@@H]1CNC(=O)C1 |  | human patients, plasma | oral, 10 mg once daily, cycle 1 day 15 |  | 6.91 ± 2.33 µM·h
CN1CC[C@@H](c2c(O)cc(O)c3c(=O)cc(-c4ccc(C(F)(F)F)cc4Cl)oc23)[C@@H]1CO | noncompartmental | human patients, plasma | oral, 100 mg intermittent, cycle 1, after day 1 |  | 3010 ng·h/mL
Cn1cc(-c2cn3nccc3c(-c3cnn([C@]4(CC#N)C[C@@H](C#N)C4)c3)n2)cn1 |  | healthy human fasted | 1600 mg single dose |  | 9920 ng·h/mL
CC(C)n1nc(-c2ccc3oc(N)nc3c2)c2c(N)ncnc21 |  | human, plasma | oral, 20 mg once weekly, cycle 1 day 15 |  | 1660 ng·h/mL
CO[C@H]1C[C@@H]2CC[C@@H](C)[C@@](O)(O2)C(=O)C(=O)N2CCCC[C@H]2C(=O)O[C@H]([C@H](C)C[C@@H]2CC[C@@H](OC(=O)NCCOCCOCCOCCOCCOCCOCCOCCOCCC(=O)N3CCc4cc(Cn5nc(-c6ccc7oc(N)nc7c6)c6c(N)ncnc65)ccc4C3)[C@H](OC)C2)C[C@@H](O)[C@H](C)/C=C(\C)[C@@H](O)[C@@H](OC)C(=O)[C@H](C)C[C@H](C)/C=C/C=C/C=C/1C |  | human patients, plasma | intravenous, 10 mg, cycle 1 day 1, 2 h infusion |  | 486 ng·h/mL
Cn1c(=O)oc2ccc(-c3ccc(C[C@@H](C#N)NC(=O)[C@@H]4CNCCCO4)cc3)cc21 |  | human, moderate renal impairment, plasma | oral, 25 mg single dose, mean |  | 4450 ng·h/mL
CC(F)(F)c1cc(F)ccc1-c1sc2cc(O)ccc2c1Oc1ccc(/C=C/C(=O)O)cc1 |  | human patients, serum | oral, 300 mg once daily, cycle 1 day 28, regular meal, mean, with: alpelisib |  | 17100 ng·h/mL
Cc1cc(Nc2cc3ncccc3c(N[C@@H]3C[C@H]4CC[C@@H](C3)N4CCC#N)n2)n[nH]1 |  | human, plasma | 10 mg single dose, mean |  | 0.777 ng·h/mL
CC(C)NC(=O)COc1cccc(-c2nc(Nc3ccc4[nH]ncc4c3)c3ccccc3n2)c1 |  | human male, plasma | oral, 200 mg, day 5, fed, alone, geometric mean |  | 8430 ng·h/mL
C=CC(=O)N(C)CCOc1c(N)ncnc1-c1cc(F)cc(NC(=O)c2ccc(C3CC3)cc2F)c1C |  | human, fasted, whole blood | oral, 60 mg single dose, food effect crossover, adjusted geometric mean |  | 173 ng·h/mL
COC(=O)N[C@@H](C)CNc1nccc(-c2cn(C(C)C)nc2-c2cc(Cl)cc(NS(C)(=O)=O)c2F)n1 |  | human, plasma | oral, 50 mg, with: posaconazole 400 mg twice daily | geometric mean | 5790 ng·h/mL

Repeated from above:
Compound | test | system | setting | scale | AUC(0-last)
Cc1cc(C)c(CNC(=O)c2cc(Cl)c3c(c2C)O[C@@](C)([C@H]2CC[C@H](N(C)C)CC2)O3)c(=O)[nH]1 |  | human, plasma | oral, 200 mg [14C] single dose |  | 13600 ng·h/mL
CN(C)C(=O)c1cc2cnc(Nc3ccc(N4CCNCC4)cn3)nc2n1C1CCCC1 |  | human, severe renal impairment, plasma | oral, 400 mg, single dose, adjusted geometric mean |  | 10800 ng·h/mL
